Experimental data collected from several papers.
Each line is one published result; not all experiments were run side by side.
CSF1R autoinhibited: Macrophage colony-stimulating factor 1 receptor, autoinhibited (CSF1R, Homo sapiens, UniProt P07333)
CSF1R: Macrophage colony-stimulating factor 1 receptor (CSF1R, Homo sapiens, UniProt P07333)

Compound	target	observed	technique	concentration	reference	remaining binding [%]
Nc1ncc2c(n1)-c1c([nH]c3ccc(C4=CCOCC4)cc13)CCC2	CSF1R autoinhibited	binding	competition with immobilised ligand	1 µM	–	75
CC(C)=CC1OC(C)(C)C2C=C3C(=O)C(Cl)=CC(O)C3C3C(O)C4OC4C(=O)C132 (stereo not shown)	CSF1R autoinhibited	cell-free assay	competition with immobilised ligand	10 µM	–	95
CCN1CCN(Cc2ccc(NC(=O)c3ccc(C)c(NC(=O)c4cncc(-c5cccs5)c4)c3)cc2C(F)(F)F)CC1	CSF1R	binding	competition with immobilised ligand	1 µM	–	0.35
COc1c(Cl)cccc1Nc1c(-c2ccncc2C#C[C@@]2(C)CCCN2C(=O)/C=C/CN(C)C)[nH]c2c1C(=O)NCC2	CSF1R	cell-free assay	competition with immobilised ligand	3 µM	–	97
CCN1CCN(Cc2ccc(C(=O)Nc3ccc(C)c(NCc4cnc5[nH]ccc5c4OC)c3)cc2C(F)(F)F)CC1	CSF1R	binding	competition with immobilised ligand	1 µM	–	0.55
CNC(=O)C1CCN(c2cc(C)c(F)cc2NC(=O)c2ccc(-c3cc(O)ccc3C)c(C)c2)CC1	CSF1R	binding	competition with immobilised ligand	1 µM	–	65
C=CC(=O)N1CCCC(n2c(=O)c3ncccc3n(Cc3ccc(Oc4ccccc4)cc3)c2=O)C1 (stereo not shown)	CSF1R autoinhibited	cell-free assay	competition with immobilised ligand	1 µM	–	91
Cc1ccc(-c2c(/C=C(\C#N)C(=O)NC(C)C)n(CCCO)c3ncnc(N)c23)cc1	CSF1R	cell-free assay	competition with immobilised ligand	1 µM	–	99
CNC1C[S+]2CC[S+]3CC[S+](C1)[Ru-4]321([N]=C=S)[n]2c3ccc(OC)cc3c3c4c(c5cc(F)c[n+]1c5c32)C(=O)NC4=O (stereo not shown)	CSF1R autoinhibited	–	KinomeScan	0.1 µM	untreated	99
CN1CCN(Cc2ccc(NC(=O)c3cccc(C#Cc4cnc(N)c5ncccc45)c3)cc2C(F)(F)F)CC1	CSF1R	cell-free assay	competition with immobilised ligand	50 nM	–	0.4
C=CC(=O)N1CCc2ccc(-n3c(=O)ccc4cnc5ccc(-c6cnn(C)c6)cc5c43)cc21	CSF1R	–	KINOMEscan	1 µM	DMSO control	98
COc1cc(Nc2nccc(-c3cnn4nc(OC)ccc34)n2)cc(C(F)(F)F)c1	CSF1R autoinhibited	binding	competition with immobilised ligand	1 µM	–	84
Cc1cnc2nc1Nc1cccc(c1)COC/C=C/COCc1cc(ccc1OCCN1CCOCC1)N2	CSF1R	binding	–	0.1 µM	–	57
